Published values collected from several papers.
Each line is one published result; not all experiments were run side by side. Several values in a cell are separate wells, animals, samples, runs or records. ± marks the error that the study gave. Values after ≈ are worked out from the molar mass of the structure shown.
Sequence of UniProt P08684 (whole entry, looked up): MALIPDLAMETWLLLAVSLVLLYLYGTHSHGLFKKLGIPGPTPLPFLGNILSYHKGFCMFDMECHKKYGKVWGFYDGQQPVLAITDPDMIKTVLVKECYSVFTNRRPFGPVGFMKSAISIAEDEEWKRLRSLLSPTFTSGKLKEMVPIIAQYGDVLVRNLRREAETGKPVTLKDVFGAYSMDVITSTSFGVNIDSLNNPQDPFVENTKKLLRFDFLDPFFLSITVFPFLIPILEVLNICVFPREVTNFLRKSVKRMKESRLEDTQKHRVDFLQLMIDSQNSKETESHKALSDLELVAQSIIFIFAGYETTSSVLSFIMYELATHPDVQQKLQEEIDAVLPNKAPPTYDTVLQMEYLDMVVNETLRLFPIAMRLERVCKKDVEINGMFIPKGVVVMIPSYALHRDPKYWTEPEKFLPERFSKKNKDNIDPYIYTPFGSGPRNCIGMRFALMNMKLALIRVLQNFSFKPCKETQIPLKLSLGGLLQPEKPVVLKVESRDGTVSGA
Sequence of UniProt Q15418 (whole entry, looked up): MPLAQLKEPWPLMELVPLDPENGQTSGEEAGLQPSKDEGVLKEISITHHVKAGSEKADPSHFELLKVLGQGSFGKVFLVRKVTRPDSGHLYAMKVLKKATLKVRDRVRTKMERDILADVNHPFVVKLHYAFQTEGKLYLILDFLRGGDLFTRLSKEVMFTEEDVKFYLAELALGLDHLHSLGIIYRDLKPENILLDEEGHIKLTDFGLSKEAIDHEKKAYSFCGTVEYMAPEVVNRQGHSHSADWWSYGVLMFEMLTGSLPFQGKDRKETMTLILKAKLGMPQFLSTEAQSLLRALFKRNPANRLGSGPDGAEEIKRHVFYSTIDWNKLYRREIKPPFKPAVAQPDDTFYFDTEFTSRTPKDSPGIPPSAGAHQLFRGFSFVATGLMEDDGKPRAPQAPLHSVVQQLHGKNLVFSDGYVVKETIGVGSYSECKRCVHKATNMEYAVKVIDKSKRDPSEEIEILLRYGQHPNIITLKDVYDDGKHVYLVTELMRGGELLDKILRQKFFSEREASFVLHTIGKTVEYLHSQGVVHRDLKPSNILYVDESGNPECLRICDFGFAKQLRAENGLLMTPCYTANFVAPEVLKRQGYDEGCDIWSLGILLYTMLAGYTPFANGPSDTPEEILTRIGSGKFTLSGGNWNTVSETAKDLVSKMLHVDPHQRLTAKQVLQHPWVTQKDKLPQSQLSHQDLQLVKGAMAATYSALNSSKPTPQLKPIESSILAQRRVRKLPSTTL

SMILES | tested on | test | test system | setting | scale | quantity | value
COc1ccnc(C(=O)NC(CO)C(=O)O)c1O (racemic) | – | – | Staffordshire loam sediment, aerobic dark | 20 °C | – | DT50 sediment | 52.7 days
Cc1cc(C)c(CNC(=O)c2cc(Cl)c3c(c2C)O[C@@](C)([C@H]2CC[C@H](N(C)C)CC2)O3)c(=O)[nH]1 | – | – | relapsed/refractory NHL patients | oral, 200 mg once daily, onset after cycle 1 day 1 | – | grade ≥3 adverse event Hyperglycemia | 4.2%
O=C(Nc1nc2cccc(-c3ccc(CN4CCS(=O)(=O)CC4)cc3)n2n1)C1CC1 | – | item: constipation | human rheumatoid arthritis patients | oral, 200 mg once daily, 4 weeks, regardless of relatedness | – | treatment-emergent adverse events | 0%
CC1(C)C(/C=C/C=C/C=C/C=C2\N(CCCCS(=O)(=O)O)c3ccc4ccccc4c3C2(C)C)=[N+](CCCCS(=O)(=O)[O-])c2ccc3ccccc3c21 | – | – | toluene | 20 °C | – | emission maximum | 824 nm
Cn1cc(-c2ccc(-c3cncc(Cl)c3N3CCC4(CCNC4=O)CC3)cc2)cn1 | COLO 205 | gene expression, microarray, item: DDR1 mRNA | – | concentration not given, 6 h | relative to: untreated cells | log2 fold change | 2.15
N#Cc1ccc2c(c1)[C@H]1CCCN(C(=O)c3ccc4[nH]cnc4c3)[C@H]1C2 | – | – | human females | 160 mg, day 15 | – | total testosterone level | 0.9 nmol/L
CCCCC[C@H](O)CC[C@@H]1[C@H]2Cc3cccc(OCC(=O)O)c3C[C@H]2C[C@H]1O | – | LC-MS/MS | Japanese PAH patients under 56.7 kg, plasma | inhaled, 54 µg | – | geometric mean AUC(0-inf) | 0.87 ng·h/mL
O=C(Nc1ccc(OC(F)(F)Cl)cc1)c1cnc(N2CC[C@@H](O)C2)c(-c2ccn[nH]2)c1 | – | per laboratory record, item: ALT increase | human patients | oral, dose not given, dose-finding study | – | grade ≥2 event rate | 0.7%
Cc1nc(C)c(-c2ccnc(Nc3ccc(N(C)C)c([N+](=O)[O-])c3)n2)s1 | – | – | octanol/buffer | pH 11 | – | logP | 4.07
Cc1ccc([C@@H]2O[C@H](CO)[C@@H](O)[C@H](O)[C@H]2O)cc1Cc1ccc(-c2ccc(F)cc2)s1 | – | – | Japanese type 2 diabetes patients | 100 mg, day 16, 24 h urine collection | relative to: baseline | urinary magnesium excretion change | 16.5 mg
Cc1cc(NC2CCN(C(=O)OC3CCN(C(=O)/C=C/CN(C)C)C3)CC2)n2ncc(C(C)C)c2n1 (stereo not drawn) | – | – | patients with advanced solid tumours | dose not given, QD arm, any grade | – | patients with Hyponatremia | 2%
CC1(C)CCC(c2ccc(Cl)cc2)=C(CN2CCN(c3ccc(C(=O)NS(=O)(=O)c4ccc(N[C@H](CCN5CCOCC5)CSc5ccccc5)c(S(=O)(=O)C(F)(F)F)c4)cc3)CC2)C1 | mouse ileal enteroid monolayers | – | – | 50 % saturated solubility, 4 h, basolateral fractions 1-10, added: taurocholate/phosphatidylcholine micelles | – | drug secreted with TRL | 2.8 ± 1.9%
CC[N+]([O-])(CC)CCNC(=O)c1c(C)[nH]c(/C=C2\C(=O)Nc3ccc(F)cc32)c1C | – | – | human, serum | 50 mg maintenance dose | – | serum concentration | 0.29 ng/mL
CC(=O)O[C@H]1C(=O)[C@@]2(C)[C@H]([C@H](OC(=O)c3ccccc3)[C@]3(O)C[C@H](OC(=O)[C@H](O)[C@@H](NC(=O)c4ccccc4)c4ccccc4)C(C)=C1C3(C)C)[C@]1(OC(C)=O)CO[C@@H]1C[C@@H]2O | – | item: blood alkaline phosphatase increased | patients with advanced solid tumours | intravenous, dose not given, phase Ib, related to compound | – | adverse events, all grades | 13%
CO[C@H]1/C=C/O[C@@]2(C)Oc3c(C)c(O)c4c(O)c(c(/C=N/N5CCN(C)CC5)c(O)c4c3C2=O)NC(=O)/C(C)=C\C=C\[C@H](C)[C@H](O)[C@@H](C)[C@@H](O)[C@@H](C)[C@H](OC(C)=O)[C@@H]1C | – | – | healthy humans | oral, dose not given | – | adverse event Gingivitis | 0%
CC1=C(c2cccc(O)c2)[C@H](c2ccc(OCCN3CC(CF)C3)cc2)Oc2ccc(O)cc21 | – | – | human, plasma | oral, 600 mg single dose, geometric mean | – | AUC(0-24 h) | 648 ng·h/mL
CCc1c(-c2ccccc2)c(-c2ccccc2)nn1-c1ccccc1-c1cccc(OCC(=O)O)c1 | – | – | Sprague-Dawley rat, heart | oral, 10 mg/kg, 1 h | – | concentration | 3210 ng/g and 2680 ng/g
O=C(O)c1ccc(C(=O)Nc2cc(C3CC3)n[nH]2)cc1 | – | – | octanol/buffer, 40 mM buffer | pH 11 | – | logP | -1.3
CN(C(=O)n1cnc(-c2ccc[n+]([O-])c2)c1)[C@H]1CC[C@H](O)CC1 | – | – | Wistar rat, pons | oral, 10 mg/kg/day of BIA 10-2474, 48 h, repeated 5 days | – | concentration | 9.9 ± 0.5 ng/g
CN[C@H]1C(=O)N[C@@H]2Cc3ccc(cc3)Oc3cc4cc(c3O[C@@H]3O[C@H](C(=O)O)[C@@H](O)[C@H](O)[C@H]3NC(=O)CCCCCCCCC(C)C)Oc3ccc(cc3Cl)[C@@H](O)[C@@H]3NC(=O)[C@H](NC(=O)[C@@H]4NC(=O)[C@@H](NC2=O)c2cc(cc(O)c2Cl)Oc2cc1ccc2O)c1ccc(O)c(c1)-c1c(O[C@H]2O[C@H](CO)[C@@H](O)[C@H](O)[C@@H]2O)cc(O)cc1[C@@H](C(=O)NCCCN(C)C)NC3=O | – | population PK model | paediatric patients | reference weight 70 kg | – | second intercompartmental clearance | 0.00996 L/h
Cc1cc(Nc2ccc(S(F)(F)(F)(F)F)cc2)n2nc(C(C)(F)F)nc2n1 | Plasmodium falciparum | 12-lead Holter ECG | human malaria patients | oral, 250 mg, QTc above 450 ms | – | patients with QTcB above threshold | 11.1%
Cc1cc(-c2nccc3c2ccn3CC(=O)Nc2ccc(-c3cnccn3)cn2)ccn1 | – | – | human | 15 mg once daily, multiple ascending dose | – | post-procedural inflammation | 0%
C[C@@H](N)C1CCN(S(=O)(=O)c2cccc3cnccc23)CC1 | – | – | healthy volunteers | 25 mg, fasted | – | participants with limb abscess | 0%
CNC(=O)c1ccc(-c2cnc3ncc(Cc4ccc5ncccc5c4)n3n2)cc1F | – | – | other cancer patients | oral, 600 mg twice daily, all grades RP2D expansion | – | ALT increased incidence | 6%
C=CC(=O)N1CCC(c2ccc(C(N)=O)c(-c3ccc(Oc4ccccc4)cc3)n2)CC1 | – | CTCAE 4.03 | patients with relapsed/refractory MCL | oral, dose not given | – | incidence of serious acute myeloid leukaemia | 0.9%
CC(C)C[C@H](NC(=O)[C@H](CCC1CCCCC1)NC(=O)[C@@H]1CCCN1C(=O)c1ccc(F)cc1)C(=O)NC(C)(C)C(=O)N[C@@H](CC(C)C)C(=O)N[C@@H](CC(C)C)C(=O)NC(C)(C)C(=O)NC(C)(C)C(=O)NCCC(=O)NCCN(C)C | – | circular dichroism | phosphate buffer | pH 7.4, 20 °C | – | alpha-helix content | 58.1%

SMILES | tested on | test | test system | setting | scale | quantity | value
NC1(C(=O)N[C@@H](CCO)c2ccc(Cl)cc2)CCN(c2nc[nH]c3nccc2-3)CC1 | – | – | metastatic CRPC patients | 480 mg b.i.d., any grade, treatment-related, added: enzalutamide 160 mg daily | – | incidence of Blindness | 0%
COc1cc(C(=O)NC2CCN(C)CC2)c(F)cc1Nc1ncc(C(F)(F)F)c(Oc2cccc3c2C(=O)N(C)C3)n1 | – | – | human patients, plasma | oral, 100 mg once daily repeated, geometric mean | – | dose-normalised AUC(tau) at steady state | 163 nmol·h/L per mg
Cc1nc2cccc(OCC(C)(C)C(=O)NC(C)C)c2c(N)c1C(=O)O | – | – | male CD-1 mouse, bone marrow | oral, 2000 mg/kg, 24 h | – | micronucleated normochromatic erythrocytes | 0.6 per 2000 PCEs
CNC(=O)c1ccc(-c2cnc3ncc(Cc4ccc5ncccc5c4)n3n2)cc1F | – | – | Japanese patients | oral, 400 mg, any grade | – | ALT increased patients | 12%
CNS(=O)(=O)Cc1ccc2[nH]cc(CCN(C)C)c2c1 | – | – | octanol/buffer | pH 11, known kinase inactives set | – | logP | 0.88 and 0.94
O=C1CC[C@H](N2Cc3cc(N4CCN(CC5CCN(c6ccc([C@@H]7c8ccc(O)cc8CC[C@@H]7c7ccccc7)cc6)CC5)CC4)ccc3C2=O)C(=O)N1 | – | – | human | oral, 200 mg, added: dabigatran etexilate 75 mg | – | participants with TRAE dry skin | 0%
Cn1ncnc1[C@H]1c2n[nH]c(=O)c3cc(F)cc(c23)N[C@@H]1c1ccc(F)cc1 | – | – | human patients, plasma | oral, 600 µg/m2, dose level DL5, median, added: temozolomide 40 mg/m2 daily days 2-6 | – | accumulation half-life | 34.1 h
Cn1c(=O)[nH]c2nc[nH]c2c1=O | – | – | human, cerebrospinal fluid | dose not given, mean | – | CSF concentration | not detected
CCCC(=O)Nc1cc(C2CC2)[nH]n1 | – | – | octanol/buffer, 40 mM buffer | pH 11 | – | logP | 1.68
CC(=O)NC[C@H]1CN(c2ccc(N3CCOCC3)c(F)c2)C(=O)O1 | Enterococcus faecalis | – | vancomycin-intermediate, 10 isolates | pH 5.5 | – | MIC50 | 2 µg/mL (≈ 5.93 µM)
CN(CCC(=O)O)C(=O)c1ccc2c(c1)CC[C@@H]1[C@@H]2CC[C@]2(C)C(c3cncc(F)c3)=CC[C@@H]12 | – | – | premenopausal women with endometriosis pain, serum | 60 mg twice daily, end of treatment, completers, median | – | total bilirubin | 0.7 mg/dL
COCCOc1cnc2ccn([C@H](C)c3nnc4c(F)cc(-c5cnn(C)c5)cn34)c(=O)c2c1 | – | – | patients, plasma | oral, 150 mg twice daily, day 28, 300 per day | – | Cmax | 4310 ng/mL
Oc1ccccc1-c1n[nH]cc1-c1ccnc2ccccc12 | HRK1 (Candida albicans) | kinase binding, MIB/MS competition | Candida albicans lysate | 1 µM | relative to: DMSO | log2 fold change | 0.02
CC(C)(C(=O)N1CCOc2c(C#N)cncc2C1)C(F)F | – | item: Vascular disorders | human | oral, 20 mg twice daily, 14 days, multiple ascending dose | – | subjects with adverse event | 0%
CC[C@@]1(O)C(=O)OCc2c1cc1n(c2=O)Cc2c-1nc1cc(F)c(C)c3c1c2[C@@H](N)CC3 | – | item: free payload | BALB/c nude mice, NCI-H1975 xenograft, tumour | intravenous, 10 mg/kg | relative to: compound over DXd | Cmax ratio | > 1.7
O=C1NCCc2nc(OCc3cccc(F)c3)ccc21 | – | item: skin color | Sprague-Dawley rat male | oral, 100 mg/kg, 0 min | relative to: baseline, direction not given | Irwin test score | 0
CNCc1ccc(-c2[nH]c3cc(F)cc4c3c2CCNC4=O)cc1 | – | – | patients | oral, 600 mg twice daily, grade 2 | – | decreased appetite incidence | 7.7%
CC(C)C[C@H](NC(=O)C[C@H](O)[C@H](CC(C)C)NC(=O)[C@H](Cc1c[nH]cn1)NC(=O)CNC(=O)[C@@H](NC(=O)[C@H](C)NC(=O)[C@H](Cc1c[nH]c2ccccc12)NC(=O)[C@H](CCC(N)=O)NC(=O)[C@@H](Cc1ccccc1)NC(=O)COCCOCCNC(=O)CCC(C(=O)O)N1CCN(CC(=O)O)CCN(CC(=O)O)CCN(CC(=O)O)CC1)C(C)C)C(N)=O (stereo partly drawn) [lutetium-177 labelled] | – | – | BALB/c nu/nu mice, liver | intravenous, 100 pmol, 1 h, added: PA 300 µg | – | tissue uptake | 0.33 ± 0.09 %ID/g
COc1ccc([C@@H](O)c2cc(-c3ncnc4cc(N5CCOCC5)ccc34)c(F)cc2Cl)nn1 | – | – | locally advanced rectal cancer patients | 100 mg, added: capecitabine and radiotherapy | – | diarrhoea TEAE incidence | 100%
COc1cc(C=CC(=O)O)ccc1O[C@@H]1O[C@H](C(=O)O)[C@@H](O)[C@H](O)[C@H]1O | – | – | human, cerebrospinal fluid | concentration not given, median | – | CSF concentration | 13.2 nM
CC[C@H]1[C@@H](O)[C@@H]2[C@H](CC[C@]3(C)[C@@H]([C@H](C)CCNC(=O)NS(=O)(=O)c4ccc(C(C)(C)C)cc4)CC[C@@H]23)[C@@]2(C)CC[C@@H](O)C[C@@H]12 | Cytochrome P450 3A4 (CYP3A4, Homo sapiens, UniProt P08684) | – | human, plasma | 10 mg, day 1, compound alone | – | Cmax geometric mean | 29.6 ng/mL
COc1cc(-c2nnc(SCC(N)=O)n2C)cc(OC)c1OC | – | – | octanol/buffer | pH 11 | – | logP | 0.25
CN1CCCC1CCNS(=O)(=O)c1ccc2c(c1)CN(CC1CCCCC1)CC2 (stereo not drawn) | – | – | THY-Tau22 mouse, pons/cerebellum | oral in diet, 0.02% in diet, 6 months, sampled at 8 p.m. | – | concentration | 193 ng/g
CC[C@@H]1[C@H](F)C(=O)N[C@@H]1COc1nccc2cc(C(N)=O)c(OC)cc12 | RPS6KA1 (Homo sapiens, UniProt Q15418) | ATP probe binding, KiNativ profiling, item: domain 2 Lys2 site | THP-1 cell lysate | 0.01 mM | – | inhibition | -8.3%
COC(=O)c1ccc(NC(=O)CSc2nnnn2-c2ccccc2OC)cc1 | – | – | octanol/buffer | pH 11, known kinase inactives set | – | logP | 3.55
